Results of several laboratories.
Each numbered part is a random draw from the data of one study; scales do not carry over between parts. Several values in a cell are separate wells, animals, samples, runs or records.
Sequence of UniProt Q8IW41 (whole entry, looked up): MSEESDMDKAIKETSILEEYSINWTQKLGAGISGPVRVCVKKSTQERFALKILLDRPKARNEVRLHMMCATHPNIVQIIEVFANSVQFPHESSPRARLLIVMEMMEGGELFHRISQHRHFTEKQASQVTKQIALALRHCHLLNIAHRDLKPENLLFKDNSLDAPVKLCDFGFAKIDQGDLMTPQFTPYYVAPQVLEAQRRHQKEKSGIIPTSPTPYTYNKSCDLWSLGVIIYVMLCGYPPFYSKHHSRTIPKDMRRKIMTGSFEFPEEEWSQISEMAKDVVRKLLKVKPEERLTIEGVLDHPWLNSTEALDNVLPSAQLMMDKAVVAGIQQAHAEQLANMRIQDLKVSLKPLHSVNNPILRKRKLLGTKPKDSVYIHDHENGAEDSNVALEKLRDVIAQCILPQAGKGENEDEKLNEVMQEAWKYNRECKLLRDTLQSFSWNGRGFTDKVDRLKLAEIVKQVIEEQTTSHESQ
Sequence of UniProt Q8WU08 (whole entry, looked up): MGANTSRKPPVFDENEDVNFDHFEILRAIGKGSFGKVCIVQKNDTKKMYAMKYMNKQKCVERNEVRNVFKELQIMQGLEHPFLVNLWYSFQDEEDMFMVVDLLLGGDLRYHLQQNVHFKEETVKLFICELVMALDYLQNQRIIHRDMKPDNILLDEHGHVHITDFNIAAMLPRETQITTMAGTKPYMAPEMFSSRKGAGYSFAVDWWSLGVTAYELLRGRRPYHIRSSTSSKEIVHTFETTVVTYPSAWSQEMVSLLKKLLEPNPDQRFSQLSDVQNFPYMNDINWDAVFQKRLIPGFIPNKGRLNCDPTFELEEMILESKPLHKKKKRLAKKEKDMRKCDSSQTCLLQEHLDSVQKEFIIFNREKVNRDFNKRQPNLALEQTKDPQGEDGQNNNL
Sequence of UniProt Q16513 (whole entry, looked up): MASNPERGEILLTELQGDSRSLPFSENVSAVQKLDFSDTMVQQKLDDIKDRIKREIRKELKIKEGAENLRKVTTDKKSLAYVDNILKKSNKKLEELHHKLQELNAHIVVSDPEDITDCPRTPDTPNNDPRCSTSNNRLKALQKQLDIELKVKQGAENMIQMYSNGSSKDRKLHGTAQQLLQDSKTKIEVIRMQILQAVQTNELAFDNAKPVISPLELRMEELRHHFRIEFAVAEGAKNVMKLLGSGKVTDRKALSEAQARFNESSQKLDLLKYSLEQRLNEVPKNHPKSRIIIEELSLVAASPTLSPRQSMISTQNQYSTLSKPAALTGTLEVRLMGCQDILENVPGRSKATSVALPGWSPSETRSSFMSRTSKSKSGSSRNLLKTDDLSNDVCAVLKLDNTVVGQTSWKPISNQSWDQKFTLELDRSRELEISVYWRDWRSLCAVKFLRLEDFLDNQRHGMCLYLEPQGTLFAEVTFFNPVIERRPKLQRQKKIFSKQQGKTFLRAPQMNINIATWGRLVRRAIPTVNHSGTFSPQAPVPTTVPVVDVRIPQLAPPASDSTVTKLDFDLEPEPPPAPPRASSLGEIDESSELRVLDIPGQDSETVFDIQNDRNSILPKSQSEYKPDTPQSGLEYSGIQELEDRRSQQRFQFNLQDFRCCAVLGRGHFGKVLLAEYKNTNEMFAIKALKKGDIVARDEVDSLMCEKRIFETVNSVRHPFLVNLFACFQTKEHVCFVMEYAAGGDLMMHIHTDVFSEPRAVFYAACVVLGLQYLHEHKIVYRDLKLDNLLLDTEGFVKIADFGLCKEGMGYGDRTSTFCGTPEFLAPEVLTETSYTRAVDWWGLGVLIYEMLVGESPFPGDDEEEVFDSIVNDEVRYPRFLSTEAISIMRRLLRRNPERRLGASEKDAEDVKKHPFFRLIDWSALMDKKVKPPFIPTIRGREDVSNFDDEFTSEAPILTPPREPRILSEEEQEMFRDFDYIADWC

Set 1 — observed: enzyme activity; mode: inhibitor; concentration: 0.5 µM; reference: control
Target: Dual serine/threonine and tyrosine protein kinase (DSTYK, Homo sapiens, UniProt Q6XUX3)
Target sequence (Q6XUX3 1-929): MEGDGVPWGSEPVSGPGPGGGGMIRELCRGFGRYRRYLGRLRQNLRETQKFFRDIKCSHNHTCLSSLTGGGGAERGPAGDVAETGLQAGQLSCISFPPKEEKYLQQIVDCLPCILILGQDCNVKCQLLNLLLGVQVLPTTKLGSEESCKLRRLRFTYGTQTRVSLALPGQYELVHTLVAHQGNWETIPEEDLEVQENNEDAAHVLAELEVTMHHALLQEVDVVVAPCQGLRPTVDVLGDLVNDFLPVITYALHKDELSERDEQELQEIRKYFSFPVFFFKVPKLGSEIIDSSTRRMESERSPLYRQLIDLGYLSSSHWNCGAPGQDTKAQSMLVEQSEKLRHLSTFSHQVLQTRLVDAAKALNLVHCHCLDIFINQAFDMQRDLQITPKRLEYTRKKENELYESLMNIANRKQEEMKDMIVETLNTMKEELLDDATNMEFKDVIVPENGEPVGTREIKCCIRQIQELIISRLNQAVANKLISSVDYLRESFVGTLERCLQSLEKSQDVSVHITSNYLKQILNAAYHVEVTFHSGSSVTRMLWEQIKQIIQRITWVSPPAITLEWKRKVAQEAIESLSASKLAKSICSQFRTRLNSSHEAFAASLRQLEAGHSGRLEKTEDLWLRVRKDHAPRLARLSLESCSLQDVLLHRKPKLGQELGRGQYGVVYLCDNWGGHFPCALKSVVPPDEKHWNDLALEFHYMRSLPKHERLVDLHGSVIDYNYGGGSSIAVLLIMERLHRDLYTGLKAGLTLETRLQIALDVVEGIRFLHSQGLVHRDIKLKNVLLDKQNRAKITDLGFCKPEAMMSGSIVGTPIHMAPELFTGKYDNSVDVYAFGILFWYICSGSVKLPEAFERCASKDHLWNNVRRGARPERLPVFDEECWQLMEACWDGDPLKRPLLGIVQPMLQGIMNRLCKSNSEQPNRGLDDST
Structure (SMILES) | remaining activity
COc1ccc(S(=O)(=O)N(CCO)c2ccccc2CN(C)CC=Cc2ccc(Cl)cc2)cc1 | 93.5%
O=C1NC(=O)C(c2c[nH]c3ccccc23)=C1c1c[nH]c2ccccc12 | 99.6%
Cc1cc(Nc2nc(-c3ccccc3)nc3ccccc23)n[nH]1 | 86%
Cc1ccc(NC2=CC(=O)c3sc(C)nc3C2=O)cc1 | 76.1%
N#CC(=C(N)Sc1ccc(N)cc1)c1ccccc1C(F)(F)F | 113%
Nc1ncnc2c1cnn2-c1ccccc1 | 94.5%
Nc1nccc(-c2c(-c3ccc(F)cc3)ncn2C2CCNCC2)n1 | 102%
Oc1ccc(Nc2nc(-c3ccc(Cl)cc3)cs2)cc1 | 104%
CC[n+]1c(/C=C/N(C)c2ccccc2)n(-c2ccccc2)c2ccc(-c3nc4ccccc4s3)cc21 | 103%
CC(C)(C)n1nc(Cc2cccc3ccccc23)c2c(N)ncnc21 | 91.4%
CCCC(=O)Oc1ccc2[nH]c(C(=O)c3cc4ccccc4[nH]3)cc2c1 | 94.9%
CCc1[nH]c(-c2ccc(OC)cc2)nc1-c1ccncc1 | 99.6%
CSc1nc(-c2ccnc(N[C@@H](C)c3ccccc3)c2)c(-c2ccc(F)cc2)[nH]1 (racemic) | 102%
Nc1nc(Nc2ccc(S(N)(=O)=O)cc2)nn1C(=O)c1c(F)cccc1F | 86.2%
Fc1ccc(-c2nc3n(c2-c2ccncc2)CCS3)cc1 | 105%
Cc1cncc2cccc(S(=O)(=O)N3CCCN(C(=O)CN)C[C@@H]3C)c12 | 105%
CC#CC(=O)Nc1cc2c(Nc3ccc(F)c(Cl)c3)ncnc2cn1 | 91.1%
CC(=O)c1ccc(N2CCOCC2)cc1O | 95.3%
O=S(=O)(NCCNC/C=C/c1ccc(Br)cc1)c1cccc2cnccc12 | 91.6%
COc1cc(Nc2c(C#N)cnc3cc(OCCCN4CCN(C)CC4)c(OC)cc23)c(Cl)cc1Cl | 104%
NC(=O)c1ccc(N(C(N)=O)c2c(F)cccc2F)nc1-c1ccc(F)cc1F | 101%
O=C1Cc2c([nH]c3ccc([N+](=O)[O-])cc23)-c2ccccc2N1 | 90%

Set 2 — mode: inhibitor; concentration: concentration not given; together with: with ssDNA
Target: DNA polymerase theta, helicase domain (POLQ, Homo sapiens, UniProt O75417)
Sequence of UniProt O75417 (whole entry, looked up): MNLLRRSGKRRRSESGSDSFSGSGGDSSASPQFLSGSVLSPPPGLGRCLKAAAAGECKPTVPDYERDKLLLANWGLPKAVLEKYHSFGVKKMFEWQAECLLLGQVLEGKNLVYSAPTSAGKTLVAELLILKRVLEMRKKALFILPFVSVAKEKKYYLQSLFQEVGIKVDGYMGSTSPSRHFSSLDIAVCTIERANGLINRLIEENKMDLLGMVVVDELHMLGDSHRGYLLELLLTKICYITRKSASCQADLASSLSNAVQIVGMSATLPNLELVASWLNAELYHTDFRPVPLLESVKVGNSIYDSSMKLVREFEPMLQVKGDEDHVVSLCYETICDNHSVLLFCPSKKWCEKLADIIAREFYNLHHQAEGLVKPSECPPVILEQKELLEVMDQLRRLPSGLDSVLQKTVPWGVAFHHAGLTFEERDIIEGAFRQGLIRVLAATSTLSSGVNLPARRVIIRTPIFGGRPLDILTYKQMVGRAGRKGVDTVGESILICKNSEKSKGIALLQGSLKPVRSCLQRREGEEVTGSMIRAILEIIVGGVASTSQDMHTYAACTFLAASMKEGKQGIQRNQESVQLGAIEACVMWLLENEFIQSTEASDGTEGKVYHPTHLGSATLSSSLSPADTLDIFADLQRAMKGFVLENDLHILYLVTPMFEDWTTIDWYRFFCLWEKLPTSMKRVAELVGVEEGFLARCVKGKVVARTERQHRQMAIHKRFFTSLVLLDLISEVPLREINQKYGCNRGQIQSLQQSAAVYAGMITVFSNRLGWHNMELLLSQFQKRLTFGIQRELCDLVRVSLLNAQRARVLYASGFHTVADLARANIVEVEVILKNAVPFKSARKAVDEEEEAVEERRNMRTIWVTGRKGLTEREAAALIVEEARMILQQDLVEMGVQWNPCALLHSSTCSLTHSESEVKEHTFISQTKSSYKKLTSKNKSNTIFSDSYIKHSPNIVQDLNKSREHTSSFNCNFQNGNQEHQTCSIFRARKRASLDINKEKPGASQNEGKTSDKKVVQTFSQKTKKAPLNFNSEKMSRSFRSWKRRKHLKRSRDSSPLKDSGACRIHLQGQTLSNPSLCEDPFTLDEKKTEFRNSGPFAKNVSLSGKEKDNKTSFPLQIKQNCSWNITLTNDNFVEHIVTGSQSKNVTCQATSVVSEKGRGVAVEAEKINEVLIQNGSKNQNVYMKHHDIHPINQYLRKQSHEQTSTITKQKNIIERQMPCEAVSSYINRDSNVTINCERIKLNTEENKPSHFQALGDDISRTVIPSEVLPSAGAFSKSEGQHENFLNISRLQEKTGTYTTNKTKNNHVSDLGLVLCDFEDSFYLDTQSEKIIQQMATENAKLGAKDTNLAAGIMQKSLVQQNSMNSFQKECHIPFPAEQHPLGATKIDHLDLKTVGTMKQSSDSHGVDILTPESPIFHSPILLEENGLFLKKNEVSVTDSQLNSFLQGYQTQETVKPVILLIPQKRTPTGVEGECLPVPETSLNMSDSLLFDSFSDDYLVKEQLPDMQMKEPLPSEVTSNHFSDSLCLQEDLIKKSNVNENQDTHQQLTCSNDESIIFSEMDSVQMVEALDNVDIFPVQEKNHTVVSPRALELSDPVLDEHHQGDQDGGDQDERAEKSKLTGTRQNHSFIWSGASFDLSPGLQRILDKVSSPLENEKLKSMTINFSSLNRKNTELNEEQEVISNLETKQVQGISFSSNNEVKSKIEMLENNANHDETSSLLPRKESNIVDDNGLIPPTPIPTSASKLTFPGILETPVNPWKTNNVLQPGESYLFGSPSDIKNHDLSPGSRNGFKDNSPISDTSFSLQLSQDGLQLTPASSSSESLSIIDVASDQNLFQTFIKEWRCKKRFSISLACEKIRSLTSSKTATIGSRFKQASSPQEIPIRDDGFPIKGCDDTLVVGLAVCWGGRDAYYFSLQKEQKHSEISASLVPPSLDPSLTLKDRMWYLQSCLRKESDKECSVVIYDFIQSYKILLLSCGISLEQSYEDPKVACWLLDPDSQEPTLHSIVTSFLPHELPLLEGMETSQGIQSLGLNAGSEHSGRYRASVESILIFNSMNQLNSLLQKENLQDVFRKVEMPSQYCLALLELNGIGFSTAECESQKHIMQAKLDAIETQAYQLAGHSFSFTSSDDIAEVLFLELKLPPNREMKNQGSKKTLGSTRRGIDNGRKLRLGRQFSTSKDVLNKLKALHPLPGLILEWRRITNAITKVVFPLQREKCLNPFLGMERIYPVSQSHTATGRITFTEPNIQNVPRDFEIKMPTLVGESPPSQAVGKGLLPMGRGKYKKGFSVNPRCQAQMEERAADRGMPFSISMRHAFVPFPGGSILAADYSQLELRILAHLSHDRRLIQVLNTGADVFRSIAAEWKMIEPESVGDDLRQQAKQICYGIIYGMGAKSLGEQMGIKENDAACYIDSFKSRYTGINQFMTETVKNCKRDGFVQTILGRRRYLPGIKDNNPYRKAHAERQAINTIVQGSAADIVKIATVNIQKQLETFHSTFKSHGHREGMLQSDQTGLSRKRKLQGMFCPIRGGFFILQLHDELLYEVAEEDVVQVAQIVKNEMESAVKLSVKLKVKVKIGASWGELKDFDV
SMILES | remaining activity
CCOc1cccc2c1N[C@@H](c1ccc(C(=O)O)cc1)[C@H]1CC=C[C@@H]21 | 46% and 51.8%
COC(=O)c1cc(Cl)ccc1NC(=O)CSc1ncc(S(=O)(=O)c2ccc(Br)cc2)c(=O)[nH]1 | 38.6% and 34.7%
O=C(Nc1ccccc1F)c1ccc2c(Cl)c3c(nc2c1)CCC3 | 82.3% and 77.7%
CCOc1nc2cccc(C(=O)OCc3oc(=O)oc3C)c2n1Cc1ccc(-c2ccccc2-c2noc(=O)[nH]2)cc1 | 42.6% and 41.8%
C/C(O)=C(\C#N)C(=O)Nc1ccc(C(F)(F)F)cc1 | 68.1% and 67%
C[C@H]1[C@H](C)CC[C@]2(C(=O)O)CC[C@]3(C)C(=CC[C@@H]4[C@@]5(C)C[C@@H](O)[C@H](O)[C@@](C)(CO)[C@@H]5CC[C@]43C)[C@H]12 | 55.6% and 56.9%
CCOc1ccc2nc3cc(N)ccc3c(N)c2c1 | 33.7% and 32.7%
COc1cc(NC(=O)CSc2ncc(S(=O)(=O)c3ccc(Br)cc3)c(=O)[nH]2)cc(OC)c1 | 75.7% and 83.4%

Set 3 — observed: enzyme activity; mode: inhibitor; concentration: 10 µM
Target: Calcium/calmodulin-dependent protein kinase type II subunit alpha (CAMK2A, Homo sapiens, UniProt Q9UQM7)
Sequence of UniProt Q9UQM7 (whole entry, looked up): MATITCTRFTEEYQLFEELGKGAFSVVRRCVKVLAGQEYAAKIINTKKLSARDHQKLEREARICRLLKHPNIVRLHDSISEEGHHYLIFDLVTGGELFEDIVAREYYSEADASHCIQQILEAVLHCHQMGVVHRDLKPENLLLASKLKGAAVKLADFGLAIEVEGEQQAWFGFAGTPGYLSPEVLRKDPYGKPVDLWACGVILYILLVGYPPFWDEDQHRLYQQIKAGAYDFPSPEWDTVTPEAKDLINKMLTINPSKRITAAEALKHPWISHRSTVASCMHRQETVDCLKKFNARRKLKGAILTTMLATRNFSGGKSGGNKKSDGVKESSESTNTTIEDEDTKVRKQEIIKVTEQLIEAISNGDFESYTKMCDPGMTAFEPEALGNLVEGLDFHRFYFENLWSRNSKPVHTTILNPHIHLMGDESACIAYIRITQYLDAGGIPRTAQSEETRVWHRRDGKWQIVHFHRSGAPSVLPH
Structure (SMILES) | inhibition
O=c1c2ccccc2oc2ccccc12 | -19%
CC1(C)CC[C@]2(C(=O)O)CC[C@]3(C)C(=CC[C@@H]4[C@@]5(C)CCC(=O)C(C)(C)[C@@H]5CC[C@]43C)[C@@H]2C1 | -26%
CN1CC[C@]23c4ccccc4N[C@H]1[C@]21CCN(C)[C@H]3Nc2ccccc21 | -13%
Cc1cnc(NC(=O)C2=C(O)c3ccccc3S(=O)(=O)N2C)s1 | -7%
CN(C)CCOC(C)(c1ccccc1)c1ccccn1 (stereo not drawn) | -5%
CCCCCCCCCCCCCCCC(=O)NCc1ccccc1 | 3%
C[C@H]1O[C@@H](O[C@H]2CC[C@]3(C)[C@H]4C=C[C@]56OC[C@@]7(CCC(C)(C)C[C@H]75)[C@@H](O)C[C@@]6(C)[C@]4(C)CC[C@H]3C2(C)C)[C@H](O)[C@@H](O[C@@H]2O[C@H](CO)[C@@H](O)[C@H](O)[C@H]2O)[C@H]1O | -10%
Nc1ccc(S(N)(=O)=O)cc1 | 7%
Nc1ccccc1C(=O)C[C@@H](N)C(=O)O | 5%
CCCN(CCC)CCc1cccc2c1CC(=O)N2 | -2%
COc1cc2nc(N3CCN(C(=O)C4CCCO4)CC3)nc(N)c2cc1OC (stereo not drawn) | -15%
C/C=C(/C)C(=O)O[C@H]1[C@H](OC(C)=O)[C@]2(CO)[C@H](O)C[C@]3(C)C(=CC[C@@H]4[C@@]5(C)CC[C@H](O[C@@H]6O[C@H](C(=O)O)[C@@H](O[C@@H]7O[C@H](CO)[C@@H](O)[C@H](O)[C@H]7O)[C@H](O)[C@H]6O[C@@H]6O[C@H](CO)[C@@H](O)[C@H](O)[C@H]6O)[C@](C)(CO)[C@@H]5CC[C@]43C)[C@@H]2CC1(C)C | -8%
COC(=O)Cc1ccc(C(C)(C)C)cc1 | 1%
CC[C@@H]1/C=C(\C)C[C@H](C)C[C@H](OC)[C@H]2O[C@@](O)(C(=O)C(=O)N3CCCC[C@H]3C(=O)O[C@H](/C(C)=C/[C@@H]3CC[C@H](Cl)[C@H](OC)C3)[C@H](C)[C@@H](O)CC1=O)[C@H](C)C[C@@H]2OC | -5%
CCN(CC)CC(=O)Oc1ccc(NC(C)=O)cc1 | -3%
C[C@]12C[C@H](O)[C@H]3[C@@H](CCC4=CC(=O)CC[C@@]43C)[C@@H]1CC[C@@H]2C(=O)CO | 11%

Set 4 — observed: cell-free assay; technique: competition with immobilised ligand; concentration: 1 µM
SMILES: CC(=O)c1c(NS(C)(=O)=O)c2cc(-c3ccc(Cl)cc3)c(-c3ccc(Cl)cc3Cl)nc2n(C)c1=O
target | remaining binding [%]
Calcium/calmodulin-dependent protein kinase type II subunit beta (CAMK2B, Homo sapiens, UniProt Q13554) | 100
Epidermal growth factor receptor (EGFR, Homo sapiens, UniProt P00533, del747-752/P753S) | 90
Platelet-derived growth factor receptor beta (PDGFRB, Homo sapiens, UniProt P09619) | 95
Tyrosine-protein kinase JAK3, JH1 (JAK3, Homo sapiens, UniProt P52333) | 100
Serine/threonine-protein kinase ICK (CILK1, Homo sapiens, UniProt Q9UPZ9) | 77
Tyrosine-protein kinase Blk (BLK, Homo sapiens, UniProt P51451) | 100
Proto-oncogene tyrosine-protein kinase receptor Ret (RET, Homo sapiens, UniProt P07949, M918T) | 100
Macrophage colony-stimulating factor 1 receptor, autoinhibited (CSF1R, Homo sapiens, UniProt P07333) | 100
Receptor-type tyrosine-protein kinase FLT3 (FLT3, Homo sapiens, UniProt P36888, ITD) | 98
Cyclin-dependent kinase 14 (CDK14, Homo sapiens, UniProt O94921) | 100
MAP kinase-interacting serine/threonine-protein kinase 1 (MKNK1, Homo sapiens, UniProt Q9BUB5) | 100
MAP kinase-activated protein kinase 5 (MAPKAPK5, Homo sapiens, UniProt Q8IW41) | 89
Serine/threonine-protein kinase 32A (STK32A, Homo sapiens, UniProt Q8WU08) | 87
Serine/threonine-protein kinase TNNI3K (TNNI3K, Homo sapiens, UniProt Q59H18) | 100
Vascular endothelial growth factor receptor 1 (FLT1, Homo sapiens, UniProt P17948) | 100
Receptor-type tyrosine-protein kinase FLT3 (FLT3, Homo sapiens, UniProt P36888, D835Y) | 95
Serine/threonine-protein kinase N2 (PKN2, Homo sapiens, UniProt Q16513) | 76

Repeated from above (set 4):
target | remaining binding [%]
MAP kinase-activated protein kinase 5 (MAPKAPK5, Homo sapiens, UniProt Q8IW41) | 89
Tyrosine-protein kinase Blk (BLK, Homo sapiens, UniProt P51451) | 100
Serine/threonine-protein kinase TNNI3K (TNNI3K, Homo sapiens, UniProt Q59H18) | 100
Epidermal growth factor receptor (EGFR, Homo sapiens, UniProt P00533, del747-752/P753S) | 90
